Measured values pooled from the literature.
Every numbered part comes from another study and shows a few of its results, in no order. Substitutions count along the parent as printed.

Set 1 — method: RNA Bind-n-Seq; form: RNA; medium: in vitro; concentration: 365 nM; reference: no-protein control; reading: higher = stronger binding; endpoint: RBNS enrichment (R)
Target: RNA binding protein fox-1 homolog 2, RRM domain, GST-SBP tag (RBFOX2, Homo sapiens, UniProt O43251-10, residues 100-194)
Setting: natural RNA segment, single round, ends assumed
Construct (chain): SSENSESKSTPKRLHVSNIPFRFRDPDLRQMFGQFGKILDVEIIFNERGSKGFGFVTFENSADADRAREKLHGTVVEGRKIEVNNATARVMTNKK
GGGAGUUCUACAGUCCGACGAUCGGCUCCCAGUCUCUCCUCUGUGAUUUUCCAGUUGCCCGGGAUCUCAGAAUAUGCUCAUCCACUCCUUCAUCAUCCCACUAUCCGAGUCCUACUUCGUUCCCCCUUUGUAAUGGAAUUCUCGGGUGCCAA: 1.63
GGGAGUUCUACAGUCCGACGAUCCAUGAUGUGAACCUUGGUUUUGAACUCUGUUCCUGCCCCUCCCCGACCGCCCCAGCCUGUGCCCGCCCCGUGCCUGCCGUGGCUGGUGGGUGGCGGUGGUGGGGCCGGGUUGGAAUUCUCGGGUGCCAA: 0.328
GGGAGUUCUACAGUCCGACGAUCGACAAGAAGCUUCCUGAGAUGGACAUUGAUUGAUUCCAACACUUGUUUAUAUUAAAACAGACUAUUAUAAAGCUUUAAGUUGUCAACUUUGUUCUGAAUAUCAACUAGAGUGGAAUUCUCGGGUGCCAA: 0.612
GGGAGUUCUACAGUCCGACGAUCUUCUGGCAAGCAGGUGCAGAGUCCCCAGCUCUGGGCUGUGCUGGGGAGUGUCAGGCCUGGAGUCCACAGCCUCACCUGCUGCUGUAGCUGUCAGCUGGACCUGGUGGCUUUGGAAUUCUCGGGUGCCAA: 0.647
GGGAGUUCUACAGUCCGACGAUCUCCAAAUAAUCUCGUUUACUCUCACCUGUUUAUGCAAAUUGUAUAAGGUUUCUUAUGCCCAAGCUUGAAAAAUGAUUUCCCAGUAGACAAGAGGCGGCUACCUAUCCUACUGGAAUUCUCGGGUGCCAA: 0.68
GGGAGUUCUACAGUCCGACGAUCUGAUGCUUCCUUCCAGUUCCUGGUGAAAGCUGCUCAUGCAGUGUGGUUUUCUUUGCUUUAGCUCGAGAAAGCGGCAGCAAACAGAAUACAGAAUGAAUGGAGACUGGGUUUGGAAUUCUCGGGUGCCAA: 0.436
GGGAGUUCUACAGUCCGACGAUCAAAACUUUUACAGAUUUUUGCACAAAAAGUGGACAUUUAUUUUUCCUGUUUUUAAAACAGUUUUUCAAGAUAUUAUUGCUUAAUAUGUUCAUUAUUGAUGUUUUUAUAGUUGGAAUUCUCGGGUGCCAA: 0.826
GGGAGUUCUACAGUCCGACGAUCGUUGGCAUGUUGUCGAAGCCAAUGGCAGCUUGACUGAUGUGAGGUGGCUAUUCCACCUGGUUCAAGAUGGAGGUGUAGAGAAAAGGGAAGUGGGGAACAAGGACUGGGCCUGGAAUUCUCGGGUGCCAA: 2.35
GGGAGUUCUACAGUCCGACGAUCCGGCUCCCAUCCAGCCCUCUCAGCGUGGGGCUGUGGCUGGUCCUCACUAUUCCCCAGUCUCCCGCUGUGGGGCAGGAACAGGAAGUGACGGGAACCUUGAGGAGGAAACGUGGAAUUCUCGGGUGCCAA: 0.339
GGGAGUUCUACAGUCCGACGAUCCCAGUGGGGUGAUUUUAACAUGCAAAUGUCUGAGAUUUCUUCACUUGCUUUCUUCCUUACUCUGCCCCACACACGUACACUUUCUGUAAAACUUGAAAAUAGAAAGCAAAUGGAAUUCUCGGGUGCCAA: 0.408
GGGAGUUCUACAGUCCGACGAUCCCUUAGGUCGGGCUUCUGUUAUGUGCUUUCCAGAAGCAGUUUUUACAACUGUAGGUAAGGUUGUAAAUUCUGAGGAACAACAACACCACCACCACAACCAUGAGCCUUUCUGGAAUUCUCGGGUGCCAA: 0.617
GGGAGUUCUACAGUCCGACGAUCCCUAAGCCACCUGCCCCUAGAGCCACAGCUGACCUGUGUGGAAACAGGGCUUUUUAUAACUAAAACCAGUUCACUAGAGACCUAGGAAUGGGCUGGGCUGAAAGUGAAAUUGGAAUUCUCGGGUGCCAA: 0.642

Set 2 — method: protein-binding microarray; form: double-stranded DNA, one strand shown; medium: in vitro; concentration: 2540 nM top; setting: 60-bp whole probe; with: salmon DNA 0.4 mg/ml; reference: random background probes; reading: higher = stronger binding; endpoint: fitted relative affinity; shared flanks, not repeated: GCCTAGCAC … GTCTTGATTCGCTTGACGCTGCTG
Target: Interferon regulatory factor 3, full length, phosphomimetic (IRF3, Homo sapiens, UniProt Q14653, residues 1-427, S386D/S396D/S398D/S402D/T404D/S405D)
Residues (chain): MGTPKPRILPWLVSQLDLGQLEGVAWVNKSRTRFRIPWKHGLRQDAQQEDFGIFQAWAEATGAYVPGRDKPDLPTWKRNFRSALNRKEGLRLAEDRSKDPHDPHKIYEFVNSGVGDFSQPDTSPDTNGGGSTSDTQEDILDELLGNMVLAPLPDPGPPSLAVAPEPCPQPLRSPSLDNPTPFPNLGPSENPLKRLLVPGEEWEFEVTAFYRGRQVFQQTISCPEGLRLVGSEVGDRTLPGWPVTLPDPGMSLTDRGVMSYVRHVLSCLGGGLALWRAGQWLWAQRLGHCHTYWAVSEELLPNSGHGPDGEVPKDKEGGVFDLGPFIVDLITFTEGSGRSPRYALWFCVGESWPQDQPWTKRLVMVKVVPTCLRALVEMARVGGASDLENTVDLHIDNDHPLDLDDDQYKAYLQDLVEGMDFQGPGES
TCACTTCTTTTTTATTCTACTGTGCTA: 2.04 z-score
TTAGATCTCAGTATCGAGTAGTGCTAG: 0.313 z-score
GACGGACTGGGGTATCGTGACGTGCTA: -0.907 z-score
GACGATATCACTTTCGAGACGTGCTAG: 2.98 z-score
CAAGTTTCTCCTTTGTAAATGTGCTAG: 2.32 z-score
TCATGTCTGGGCTTTTTCACTGTGCTA: -0.414 z-score
TTAGATCTCAGTCTAGATTAGTGCTAG: 0.291 z-score
GACGGACCGGACACTGGGGACGTGCTA: -0.245 z-score
GAAGGACTGGGGACTGGGGACGTGCTA: -1.31 z-score
TCAAAAGTCTTTTATGGTACTGTGCTA: -0.34 z-score
CTAGGTCTCCTACTGCTTTAGTGCTAG: 0.744 z-score
TTAGAACTGGGGACTGGATGAGTGCTA: -0.788 z-score
CACGGTATCGGTATCGGGACGTGCTAG: 4.29 z-score
GAAGATGTCAAACTCACTCAGTGCTAG: -0.00152 z-score
TTAGATTTCGGGTATCGCTTAGTGCTA: 1.3 z-score
GACGGCCTCCTTATCCTGACGTGCTAG: -0.0439 z-score
TCAAATTTTGCTTCTAGACTGTGCTAG: 0.482 z-score
TTAGGTATCGACTTACGGTTAGTGCTA: 0.637 z-score
GACGGTATGGACACTGGGGACGTGCTA: -0.356 z-score
GAAGATATCAGACTGGAGACGTGCTAG: 0.0244 z-score
GACGGACTGCTACTGCTGATGTGCTAG: -0.936 z-score
AACGGTTTCGGTTTCGGGACGTGCTAG: 11.3 z-score
GACCGACTGGACACTGGGGACGTGCTA: -0.299 z-score
TTAGATCTCAGTTCCGATTAGTGCTAG: 1.77 z-score
TTAGGTTTCGGTCTTGGTTAGTGCTAG: 9.42 z-score

Set 3 — method: DHFR PCA, deep sequencing; medium: yeast; with: (+)-ABA 0.0091 µM; reference: wild-type fitted maximum; reading: higher = stronger binding; endpoint: relative binding score
Target: ABI1, truncated, D143A, DHFR fusion (Arabidopsis thaliana)
Setting: methotrexate growth selection, single substitutions
Starting sequence: PYL1, truncated, DHFR fusion (Arabidopsis thaliana); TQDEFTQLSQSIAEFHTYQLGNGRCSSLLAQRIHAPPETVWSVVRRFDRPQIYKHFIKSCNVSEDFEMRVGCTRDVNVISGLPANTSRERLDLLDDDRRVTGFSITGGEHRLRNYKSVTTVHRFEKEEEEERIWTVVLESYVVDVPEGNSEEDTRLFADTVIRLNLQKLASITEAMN; partner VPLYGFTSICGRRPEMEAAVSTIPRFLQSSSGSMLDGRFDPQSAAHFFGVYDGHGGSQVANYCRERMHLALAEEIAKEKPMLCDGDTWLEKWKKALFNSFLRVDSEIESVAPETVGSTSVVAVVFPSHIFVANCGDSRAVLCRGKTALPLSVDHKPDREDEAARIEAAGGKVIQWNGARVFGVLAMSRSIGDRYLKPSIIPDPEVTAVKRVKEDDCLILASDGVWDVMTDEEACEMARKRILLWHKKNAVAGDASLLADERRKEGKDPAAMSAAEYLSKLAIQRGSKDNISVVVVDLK
D92Q: -11.4%
R123Y: -1.59%
H16I: -3.69%
C25F: 11.6%
Q10D: 49.8%
C60F: -5.39%
S80C: 27.9%
D75H: 26.8%
G102T: -1.47%
V136K: -9.44%
S87T: 38.3%
A170I: -11.7%
R46A: 20.7%
Y141D: 1.26%

Set 4 — target: CCNA2, cyclin fold, Cln2 fusion (human); method: yeast growth competition, sequencing; medium: yeast; setting: weak parent motif; reference: not given; reading: higher = stronger binding; endpoint: normalised enrichment score
Starting sequence: AKAP12 docking peptide (human); GSPLKKLFTSTGL
K5R F8L: 1
T11A: 1.05
S10A: 1.32
L13A: 1.3
K5A: 0.0246
F8A: -0.132
L4A: -0.103

Set 5 — method: protein binding microarray; form: double-stranded DNA, one strand shown; medium: in vitro; concentration: not given; reference: not given; reading: higher = stronger binding; endpoint: E-score
Target: Histone acetyltransferase KAT6A, both winged helices, GST fusion (KAT6A, Homo sapiens, UniProt Q92794, residues 1-181)
Setting: 8-mer, flanks averaged, mean of 2 arrays, mostly near background
Residues (chain): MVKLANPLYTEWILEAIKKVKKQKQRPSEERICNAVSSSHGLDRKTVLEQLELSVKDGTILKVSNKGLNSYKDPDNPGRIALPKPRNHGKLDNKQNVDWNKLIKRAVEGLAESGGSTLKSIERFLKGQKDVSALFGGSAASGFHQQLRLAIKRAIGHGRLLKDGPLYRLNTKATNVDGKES
TATGTAAA: -0.0814
CAGTGAGC: 0.0711
ATTGACGG: 0.281
GAAATGGA: -0.143
CCGTAACA: 0.187
ATGTATTG: 0.00702
CACCCCCG: 0.0587
GCTCCGTA: 0.22
AAGGGCAA: -0.0603
CGCCGATA: 0.306
AGCTTATA: -0.0275
GCAGTCCA: -0.0751
AAACAGGA: -0.23
GTCCGTAA: 0.227
GCCAATCA: -0.195
CGCACATA: 0.129
GCCAATAA: -0.057
CAGTGCAC: -0.0883
AAGGAGTG: -0.121
AATGGCGG: 0.106
AGCGGGCA: 0.179
TCAGCACA: -0.157
CATGGAAC: -0.0722
AGCTAATC: -0.129

Excerpt of the above (set 2):
GAAGGACTGGGGACTGGGGACGTGCTA: -1.31 z-score
TCAAAAGTCTTTTATGGTACTGTGCTA: -0.34 z-score
CTAGGTCTCCTACTGCTTTAGTGCTAG: 0.744 z-score
TTAGAACTGGGGACTGGATGAGTGCTA: -0.788 z-score
CACGGTATCGGTATCGGGACGTGCTAG: 4.29 z-score
GAAGATGTCAAACTCACTCAGTGCTAG: -0.00152 z-score
TTAGATTTCGGGTATCGCTTAGTGCTA: 1.3 z-score
GACGGCCTCCTTATCCTGACGTGCTAG: -0.0439 z-score
TCAAATTTTGCTTCTAGACTGTGCTAG: 0.482 z-score
TTAGGTATCGACTTACGGTTAGTGCTA: 0.637 z-score
GACGGTATGGACACTGGGGACGTGCTA: -0.356 z-score
